Published values from different studies.
Parts stem from different laboratories: compare values within a part only. Positions count from the first letter of the parent shown.

Series 1
Target: CREB3L2, bZIP domain (human)
Method: DHFR protein complementation
Sample: yeast
Notes: single substitutions, most at no-binding floor
Baseline: wild-type JUN-FOS pair
Reading: higher = stronger binding
Starting sequence: JUN, bZIP domain (human); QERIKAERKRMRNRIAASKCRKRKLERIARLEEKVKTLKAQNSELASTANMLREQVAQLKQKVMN; partner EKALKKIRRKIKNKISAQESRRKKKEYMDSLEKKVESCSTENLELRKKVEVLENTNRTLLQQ
| Change | binding fitness |
| --- | --- |
| M51L | -1.53 natural log |
| L45Y | -1.54 natural log |
| A57V | -1.67 natural log |
| L31P | -1.52 natural log |
| A57W | -1.35 natural log |
| T37R | -1.36 natural log |
| K34C | -1.32 natural log |
| N42P | -1.53 natural log |
| E44V | -1.36 natural log |
| Q55D | -1.41 natural log |

Series 2
Target: CCND3, cyclin fold, Cln2 fusion (human)
Method: yeast growth competition, sequencing
Sample: yeast
Notes: weak parent motif
Baseline: not given
Reading: higher = stronger binding
Starting sequence: PKN2 docking peptide (human); VSAVRKLDFSDTM; partner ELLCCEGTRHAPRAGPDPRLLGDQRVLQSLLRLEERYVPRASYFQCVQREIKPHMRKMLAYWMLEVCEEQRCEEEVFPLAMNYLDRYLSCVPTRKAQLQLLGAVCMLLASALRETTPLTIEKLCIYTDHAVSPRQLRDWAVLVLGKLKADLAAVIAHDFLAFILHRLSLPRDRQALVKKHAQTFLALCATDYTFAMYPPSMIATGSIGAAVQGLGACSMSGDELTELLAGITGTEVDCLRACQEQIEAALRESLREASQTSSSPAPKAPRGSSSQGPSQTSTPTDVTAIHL
| Change | normalised enrichment score |
| --- | --- |
| VSAVRKLDISDTM [F9I] | 0.145 |
| VSAVRKLDFSDAM [T12A] | 1.18 |
| VSAVRKGDFSDTM [L7G] | 0.141 |
| VSAMRKLDFSDTM [V4M] | 0.9 |
| VHAVRKLDFSDTM [S2H] | 0.416 |
| VSACRKLDFSDTM [V4C] | 2.02 |
| VSAVRKLDFEDTM [S10E] | 1.16 |
| VSAVRKLDFSITM [D11I] | 0.729 |
| VSAVRKLDFSWTM [D11W] | -0.221 |
| VSAVRGLDFSDTM [K6G] | 0.207 |
| VSAVRVLDFSDTM [K6V] | 0.459 |
| VSYVRKLDFSDTM [A3Y] | -0.0991 |
| VSAVRKLDNSDTM [F9N] | -0.188 |
| VSAVRMLDFSDTM [K6M] | 0.547 |
| VSAVRKRDFSDTM [L7R] | 0.0454 |

Series 3
Target: RNA binding protein fox-1 homolog 2, RRM domain, GST-SBP tag (RBFOX2, Homo sapiens, UniProt O43251-10, residues 100-194)
Method: RNA Bind-n-Seq
Molecule type: RNA
Sample: in vitro
Concentration: 365 nM
Notes: natural RNA segment, single round, ends assumed
Baseline: no-protein control
Reading: higher = stronger binding
Residues (chain): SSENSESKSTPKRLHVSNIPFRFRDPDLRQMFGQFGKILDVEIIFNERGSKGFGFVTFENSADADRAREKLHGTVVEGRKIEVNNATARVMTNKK
| Strand | RBNS enrichment (R) |
| --- | --- |
| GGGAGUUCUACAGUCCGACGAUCGGUGGAAAAGACUCAAAGGCACUUGGGCCAUUCAGGACCACCCCAGCUGUGUCUGGGUUGGUGGGGAAAUGAUGGAGAACCAGCCAGUGGGGCUGUCAGCAGUGGGGGCUUGGAAUUCUCGGGUGCCAA | 0.788 |
| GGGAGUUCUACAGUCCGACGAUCGUAUCUCCAAGAUGAGACUCAACAGGACUUGGAUUUUGAGAAGCCCAGGCUCUAAAUAAUAGCCUCAGGUCAUCAGGGGGACAGACUGAGUGUCUGUGAUCACUAACAGGUGGAAUUCUCGGGUGCCAA | 0.293 |
| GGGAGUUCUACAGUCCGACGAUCAUUGGACAGAUUUUAGGAGCAUGAUGUUUGCCUCCUCCGAGAGAGAGGAGUCAGAGAGAGAGAGGAGUCAGAAGGUGGCCGGAGUUAUCAUUGGGUCCCCUGAGCUCCAUUGGAAUUCUCGGGUGCCAA | 5.43 |
| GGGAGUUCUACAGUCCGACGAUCGUUCAGGCCCACUGAAGAAGUGUGCAGAAGUCUUGGAAGUCUGUCCCCGCCCUGAAGAGCUUCAGAAAUAGUGGGAGUUUCCCUAAAGCCUUUCAUAGCCUUAAUUCAUGUGGAAUUCUCGGGUGCCAA | 0.482 |
| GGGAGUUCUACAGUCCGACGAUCGAAUUUGCACAUGGUGUAGAGAGCUCCCUCUCCUGCCUCUCUGCCCAGCCUUGUUACCUCACUCCUGCUCCAGCCAUUGUGAUGGGCUCAGCCAGCUCCCUGUUCUGAUGUGGAAUUCUCGGGUGCCAA | 2.29 |
| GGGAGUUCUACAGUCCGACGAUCAAUUCCUUUGGCAUUUGGGGUUUUGUUUUUCCUUUUUUCCUUCUUCAUCCUCCUCCUUUUUUAAAAGUCAACGAGAGCCUUCGCUGACUCCACCGAAGAGGUGCGCCACUUGGAAUUCUCGGGUGCCAA | 0.495 |
| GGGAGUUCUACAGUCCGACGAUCGAGGCUGGCUUUGAACUUGGGAUCCUGAGGCUUCAGACUCCCAGGUGGCUGUUUAUUCUCUCUAACCAGCUCUGUUAGAUAUUUCCUCUAAUCAAGCUAAUUGGUUACUGUGGAAUUCUCGGGUGCCAA | 0.323 |
| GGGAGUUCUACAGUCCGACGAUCUUGGAUGUGAAUGUCCUUGCAGGCCGGUUAGUCUCCAGUUUCCACAGAGACCACCUACCCACCACCUUCCCAGGUCACCUGCCUGGUCCCUGAAAGAAAGCAUUUGUGUGUGGAAUUCUCGGGUGCCAA | 0.402 |
| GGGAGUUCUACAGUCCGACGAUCUACUCUGUUGCUGGCUUUAGCAGAGAAUAGGAGGAACCAUAUGAAAAAGAUCAGGCUUUCUGACUUCCAUCCCCAAAACACAUUUACCAGCAUACUCCAAACUGUUUCUGUGGAAUUCUCGGGUGCCAA | 0.795 |
| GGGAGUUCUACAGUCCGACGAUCUAUGUAGCCAGAUUACUUAAAUCUCAGAAUUACUAAGCAUGUGGCAUAAAUUUGGAGAAAAUAAUAUGACUAGAAAAAUUAGUGUUAUAUUGGGUGUGAGAAAAGACUGUUGGAAUUCUCGGGUGCCAA | 12.9 |
| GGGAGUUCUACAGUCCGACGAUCCACUGAGCCUUUCGCCCUGGAAGUUCUUGGCCCAGGGUCUUCAACUUGUUUGCACGACCACUUCCAGCUUGCUGCUUCCUUCAGUUCCCCAGGCUCCUCCUCCAAAUGCCUGGAAUUCUCGGGUGCCAA | 2.52 |
| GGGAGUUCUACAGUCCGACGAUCCAUCUUAAUCCAAGCAAAAAUAAGACAGCUUAAAAAACAACCAAAAAAAAUGUGCCUCUGGUGAAUUAUCCAUCCUUUUUUUAAAAUGUUAAACUGGUCUUUGAGAAAAGUGGAAUUCUCGGGUGCCAA | 0.438 |

Series 4
Target: Centromere-binding protein 1, full length, His-tagged (CBF1, Saccharomyces cerevisiae, UniProt P17106, residues 1-351)
Chain of UniProt P17106 (whole entry, looked up): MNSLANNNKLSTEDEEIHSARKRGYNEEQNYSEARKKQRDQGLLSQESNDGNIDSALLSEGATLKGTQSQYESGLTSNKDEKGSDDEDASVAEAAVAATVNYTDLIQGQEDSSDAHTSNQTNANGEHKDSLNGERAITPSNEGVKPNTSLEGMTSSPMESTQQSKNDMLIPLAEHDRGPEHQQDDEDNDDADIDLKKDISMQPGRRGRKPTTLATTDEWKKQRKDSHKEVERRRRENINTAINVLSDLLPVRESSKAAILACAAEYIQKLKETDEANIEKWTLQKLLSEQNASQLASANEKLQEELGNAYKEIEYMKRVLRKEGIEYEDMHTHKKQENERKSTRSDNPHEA
Method: competition protein-binding microarray
Molecule type: double-stranded DNA, one strand shown
Sample: in vitro
Concentration: 2 µM
Notes: whole 60-bp probe, lowest competitor level
Together with: Pho4 competitor, 0.05 µM
Reading: higher = stronger binding
| Strand | fluorescence intensity [a.u.] |
| --- | --- |
| TGTCCGACAGCCCATCACGCAGAGCAAGTTTAAGACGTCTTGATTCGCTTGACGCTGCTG | 88.8 |
| TCCGCACACAGAGGTTATGTGACGGTGGTAACCGTAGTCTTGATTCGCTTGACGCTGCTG | 56.6 |
| TTCACTTCGGGTTTTGCCGTGCCGAACTTTTCAGATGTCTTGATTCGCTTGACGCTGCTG | 67.6 |
| GTTACCAATTTGAGACTTGTAATATGGTTGGTTACCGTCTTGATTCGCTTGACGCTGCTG | 76.4 |
| CTAACGAAGGTTTGTTGTGTGGGTGACAAGCCAAGTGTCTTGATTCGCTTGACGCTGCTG | 87.5 |
| ATTGATGATGGTTATCATGCTTGATAATAGACTTAAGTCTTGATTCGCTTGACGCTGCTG | 86.8 |
| CGGGGTTAAGTTTGAAATGTGGGTGGCTTGCAGCAGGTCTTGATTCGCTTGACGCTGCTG | 80.2 |
| TTGGAAGTTGTATCGCACGTACAGGACCTGAACACTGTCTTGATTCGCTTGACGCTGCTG | 69.1 |
| TGCGCAACAACTTGTGATGTGGGTGTATGTCTAGAAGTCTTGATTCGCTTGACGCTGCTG | 79.1 |
| CTAACGAAGGTTTGCCAGGTGGGTGACAAGCCAAGTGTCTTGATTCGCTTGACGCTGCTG | 67.3 |
| CGCCCGACGTCATTCCTCGTGATGGCTTCTGTTGTTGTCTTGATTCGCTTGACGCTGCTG | 172 |
| CGTCCTAGTGATTGGAAGGTGGGTGCCATGAGGAAGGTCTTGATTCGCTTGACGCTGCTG | 71.4 |
| CTTCTGTAAATTTGTCACACCACTTGACGCGCCCCGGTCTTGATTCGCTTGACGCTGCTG | 142 |
| TGTATAAATGTCCGTCACGTGGCCGTCTGTCTCTTAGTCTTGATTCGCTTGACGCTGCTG | 6900 |
| CTTCTGTAAATTTTTCACGTGCAATGACGCGCCCCGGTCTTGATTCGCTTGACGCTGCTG | 953 |
| TCTGTATGGGTTTGTCATGCTGCTCTGGTCCCTTATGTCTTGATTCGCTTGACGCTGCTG | 72.4 |
| TAAGGTATTACGAGACACATGGAATACTAAGAATATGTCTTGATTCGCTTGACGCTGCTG | 128 |
| TCTTCGTTGTCTACCCACGCTCTTCCGGACCCTCTTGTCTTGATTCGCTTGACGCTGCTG | 48.8 |
| CTAACGAAGGTTTGCACTGTGGGTGACAAGCCAAGTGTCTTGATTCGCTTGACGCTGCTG | 75.1 |
| AAAGCGGTAATTTGTTCAGTGGGTGCAGATATCTATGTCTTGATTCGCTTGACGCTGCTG | 90.6 |
| GGTAGCGATTTCCATCACGTGACTCGTTTTTATTCCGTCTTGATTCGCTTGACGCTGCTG | 27300 |
| CGTAGGGCAATTTTTAGCGTGATGGATAAGGGCGCAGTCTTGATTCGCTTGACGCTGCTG | 86.1 |
| AAGAGCTTCTTGCGCTTTTTATCCCCATGGACTAGGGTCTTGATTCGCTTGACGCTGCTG | 72.3 |

For quick reference, copied from above (series 2):
| Change | normalised enrichment score |
| --- | --- |
| VSAVRKLDFSITM [D11I] | 0.729 |
| VSYVRKLDFSDTM [A3Y] | -0.0991 |
| VSAVRKLDNSDTM [F9N] | -0.188 |
| VSAVRKLDFSWTM [D11W] | -0.221 |
| VSAVRKLDFSDAM [T12A] | 1.18 |
| VSACRKLDFSDTM [V4C] | 2.02 |
